Measurements from different studies.
Each line is one published result; not all experiments were run side by side. ± gives the spread as reported.

COc1cccc2c1C(=O)c1c(O)c3c(c(O)c1C2=O)C[C@@](O)(C(=O)CO)C[C@@H]3O[C@H]1C[C@H](NC(=O)[C@@H]2CCCN2C(=O)CNC(=O)[C@@H](N)CC(C)C)[C@H](O)[C@H](C)O1  AUC (healthy mouse, plasma; intravenous, 849.5 mg/kg PhAc-ALGP-Dox): 1.32 µM·h
O=C(O)CC[C@H](NC(=O)N[C@@H](CCCCNC(=O)[C@H](Cc1ccc2ccccc2c1)NC(=O)CCCCCNC(=O)CN1CCN(CC(=O)O)CCN(CC(=O)O)CCN(CC(=O)O)CC1)C(=O)O)C(=O)O [gallium-68 labelled]  tissue uptake (gamma counting; mouse, PC-3 xenograft, muscle; intravenous, 3.7 MBq, 2 h): 1.8 ± 0.08 %ID/g
O=C(Cn1ccnc1)Nc1ccc(C2CCCCC2)cc1  hepatic clearance (mouse liver microsomes; 1 µM): 55 mL/min/kg
CC[C@H](C)[C@@H]([C@@H](CC(=O)N1CCC[C@H]1[C@H](OC)[C@@H](C)C(=O)N[C@H](C)[C@@H](O)c1ccccc1)OC)N(C)C(=O)[C@@H](NC(=O)[C@H](C(C)C)N(C)C(=O)OCc1ccc(NC(=O)[C@H](CCCNC(N)=O)NC(=O)[C@@H](NC(=O)CCCCCN2C(=O)CC(SC[C@H](NC(=O)[C@H](CC(=O)O)NC(=O)[C@H](CCCNC(=N)N)NC(=O)[C@H](CC(=O)O)NC(=O)CCCCn3cc(CCCC(=O)Nc4nnc(S(N)(=O)=O)s4)nn3)C(=O)O)C2=O)C(C)C)cc1)C(C)C (stereo partly shown)  half-life (LC-MS, refers to: intact conjugate; mouse serum; 100 µg/mL, 37 °C): 11.2 h
CC(C)C[C@H](NC(=O)C[C@H](O)[C@H](CC(C)C)NC(=O)[C@H](Cc1c[nH]cn1)NC(=O)CNC(=O)[C@@H](NC(=O)[C@H](C)NC(=O)[C@H](Cc1c[nH]c2ccccc12)NC(=O)[C@H](CCC(N)=O)NC(=O)[C@@H](Cc1ccccc1)NC(=O)COCCOCCNC(=O)CN1CCN(CC(=O)O)CCN(CC(=O)O)CCN(CC(=O)O)CC1)C(C)C)C(N)=O [lutetium-177 labelled]  tissue uptake (female BALB/c nu/nu mice, liver; intravenous, 50 pmol, 24 h): 0.06 ± 0.01 %ID/g
C[C@@H](O)[C@@H](CO)NC(=O)[C@@H](CCCNC(=N)N)NC(=O)[C@@H]1CCCN1C(=O)[C@@H]1CSSC[C@H](NC(=O)[C@H](Cc2ccccc2)NC(=O)CN2CCN(CC(=O)O)CCN(CC(=O)O)CCN(CC(=O)O)CC2)C(=O)N[C@@H](Cc2ccc(O)cc2)C(=O)N[C@@H](Cc2ccccc2)C(=O)N[C@@H](CCC(N)=O)C(=O)N[C@@H](CC(N)=O)C(=O)N1 [gallium-68 labelled]  radiochemical purity (PBS; 3 h, 37 °C): > 99%
CC(C)C[C@H](NC(=O)C[C@H](O)[C@H](CC(C)C)NC(=O)[C@H](Cc1c[nH]cn1)NC(=O)CNC(=O)[C@@H](NC(=O)[C@H](C)NC(=O)[C@H](Cc1c[nH]c2ccccc12)NC(=O)[C@H](CCC(N)=O)NC(=O)[C@@H](Cc1ccccc1)NC(=O)COCCOCCNC(=O)CCC(C(=O)O)N1CCN(CC(=O)O)CCN(CC(=O)O)CCN(CC(=O)O)CC1)C(C)C)C(N)=O (stereo partly shown) [lutetium-177 labelled]  tissue uptake (BALB/c nu/nu mice, brain; intravenous, 750 pmol, 1 h, with: PA 300 µg): 0.03 ± 0.02 %ID/g
CN1CCN(C(=O)c2ccc(C3CCCCC3)cc2)CC1  hepatic clearance (hepatocyte stability; cryopreserved rat hepatocytes; 1 µM): 45 mL/min/kg
CC(C)[C@H](NC(=O)[C@@H](NC(=O)CCCc1cn(CC(O)CN2CCN(CC(=O)O)CCN(CC(=O)O)CCN(CC(=O)O)CC2)nn1)[C@@H](C)O)C(=O)N[C@@H](CCCNC(=N)N)C(=O)N[C@H](C(=O)N[C@@H](CO)C(=O)N[C@@H](C)C(=O)N[C@@H](CC(=O)O)C(=O)O)[C@@H](C)O (stereo partly shown)  volume of distribution (healthy male humans, plasma; intravenous bolus, 0.08 mmol/kg): 0.237 ± 0.0479 L/kg
COc1cccc2c1C(=O)c1c(O)c3c(c(O)c1C2=O)C[C@@](O)(C(=O)CO)C[C@@H]3O[C@H]1C[C@H](NC(=O)[C@@H]2CCCN2C(=O)CN)[C@H](O)[C@H](C)O1  AUC (healthy mouse, plasma; intravenous, 23.6 mg/kg PhAc-ALGP-Dox): 0.1 µM·h

Some of these lines once more:
O=C(O)CC[C@H](NC(=O)N[C@@H](CCCCNC(=O)[C@H](Cc1ccc2ccccc2c1)NC(=O)CCCCCNC(=O)CN1CCN(CC(=O)O)CCN(CC(=O)O)CCN(CC(=O)O)CC1)C(=O)O)C(=O)O [gallium-68 labelled]  tissue uptake (gamma counting; mouse, PC-3 xenograft, muscle; intravenous, 3.7 MBq, 2 h): 1.8 ± 0.08 %ID/g
